Results pooled from the literature.
Lines come from different studies, so protocols differ. Values joined by “and” are separate records of one study, mostly repeats; a detail may differ. ± marks the error that the study gave.

| Structure (SMILES) | test | test system | conditions | scale | measurement | result |
| --- | --- | --- | --- | --- | --- | --- |
| CC(CCC(=O)NCc1ccc(C(=O)NO)cc1)C1CCC2C3C(O)CC4CC(O)CCC4(C)C3CCC12C (stereo not shown) | refers to: Tauro-conj | PCK rat (Pkhd1 mutant), portal blood | oral gavage, dose not given, 5 months | relative to: total bile acids | relative abundance | 33.1% |
| CC(=O)[O-].O.O.O.O.[Co+2].[O-]c1ccc(Br)cc1C=NCCN1CCOCC1 | hydroxyl radical scavenging | – | 160 µM | – | inhibition | 38.4% |
| Cc1cccc(C)c1CNc1cc(C(=O)N2CCC2)cn2c(C)c(C)nc12 | basal gastric acid secretion | pylorus-ligated rat | oral, 2 mg/kg | – | total acid output | 64.3 ± 8.5 µEq/3 h |
| Cc1cn(CC(=O)N(CC(=O)N[C@H]2COC[C@@H]2N(CC(=O)NCCOCCOCC(N)=O)C(=O)Cn2cnc3c(N)ncnc32)[C@H]2COC[C@@H]2NC(=O)CN(C(=O)Cn2cnc3c(N)ncnc32)[C@H]2COC[C@@H]2NC(=O)CN(C(=O)Cn2cnc3c(=O)[nH]c(N)nc32)[C@H]2COC[C@@H]2NC(=O)CN(C(=O)Cn2cc(C)c(=O)[nH]c2=O)[C@H]2COC[C@@H]2NC(=O)CN(C(=O)Cn2cnc3c(=O)[nH]c(N)nc32)[C@H]2COC[C@@H]2NC(=O)CN(C(=O)Cn2cc(C)c(=O)[nH]c2=O)[C@H]2COC[C@@H]2NC(=O)CN(C(=O)Cn2cnc3c(N)ncnc32)[C@H]2COC[C@@H]2NC(=O)CN(C(=O)Cn2cnc3c(=O)[nH]c(N)nc32)[C@H]2COC[C@@H]2N)c(=O)[nH]c1=O | UV melting | DNA duplex with T·G mismatch | pH 7.2, 1 µM each strand | – | Tm | 55.6 °C |
| C[C@@H](Nc1c(-c2c(F)cc(C#N)cc2F)c(Cl)nc2ncnn12)C(C)(C)C | – | male PS19 tau transgenic mice, brain | intraperitoneal, 3 mg/kg twice weekly, 3 months | relative to: vehicle | GFAP astrocytic staining | decreased |
| Cc1cc(OCCOCCN(C)C)cc(C(C)C)c1 | locomotor activity in dark | zebrafish larvae, 7 dpf | 10 µM, minute 3, dark phase | – | larval motion | 1.3 ± 0.3 pixels/frame |
| COc1cc(N2CCN(C(=O)C3CCCN3)CC2)ccc1Nc1ncc(Cl)c(Nc2ccccc2P(C)(C)=O)n1 (stereo not shown) | – | nude mice, NCI-H3122 xenograft | oral, 25 mg/kg every two days, day 7 | – | tumour volume | 131 mm3 and 87.3 mm3 and 22 mm3 and 46.5 mm3 and 85.9 mm3 |
| COc1ccccc1C(C[N+](=O)[O-])c1c(-c2ccccc2)[nH]c2ccccc12 (stereo not shown) | mechanical allodynia, von Frey | mice, chronic constriction injury | dose not given, 6 h, highest dose | – | maximal possible effect | 80% |
| O=S(=O)(N[C@H]1CCO[C@@H](C2c3ccc(F)cc3CCc3cc(F)ccc32)C1)c1ccc(OC(F)(F)F)cc1 | – | D341-Luc, athymic nude mouse | oral gavage, 75 mg/kg twice daily | relative to: vehicle | leptomeningeal metastasis bioluminescence | decreased |
| O=C(CCN1CCN(C/C=C/c2ccccc2)CC1)Nc1ccccc1F | locomotor activity in dark | zebrafish larvae, 7 dpf | 10 µM, minute 7, dark phase | – | larval motion | 2.3 ± 0.9 pixels/frame |
| COC1CN([C@H]2CC[C@H]([C@@]3(C)Oc4c(Cl)cc(C(=O)NCc5c(SC)cc(C)[nH]c5=O)c(C)c4O3)CC2)C1 | RNA-seq, refers to: PIAS2 mouse homolog | mouse, HT-1376 xenograft, whole blood | dose not given | relative to: vehicle | log2 fold change | 0.427 |
| CN(C)CCCSC(=S)N1CCN(C(=O)/C=C/c2coc3ccccc3c2=O)CC1 | N condensate formation, confocal microscopy, refers to: N-YFP | Nicotiana benthamiana leaves | 100 µg/mL, 72 h post-injection, injected 36 h post-infiltration | – | inclusion body count | 9 and 6 and 8 and 14 |
| O=C(CCN1CCN(C/C=C/c2ccccc2)CC1)Nc1ccc2c(c1)CCC2 | – | zebrafish larvae, 7 dpf | 10 µM, minute 4 | – | larval motion | 16.2 ± 2.1 pixels/frame |
| NC[C@@H](C(=O)Nc1ccc(-c2cn[nH]c2)cc1)c1ccccc1 | – | normotensive Macaca cyclopis, right eye | 0.1 %, pre-dose | – | intraocular pressure | 20.3 mmHg |
| COc1cc(O)ccc1CCC(c1ccc(O)cc1)c1cc2c(c(C)c1O)OC(c1ccc(O)cc1)CC2 (mixture of isomers) | – | human blood | 0.3 µM, added: A23187 | – | 14-HDHA level | 529 ± 103 pg/mL |
| Cc1cnc2nc1Nc1cccc(c1)COC/C=C/COCc1cc(ccc1OCCN1CCOCC1)N2 | – | BALB/c mice rhEPO-induced polycythemia, bone marrow | 75 mg/kg | – | CD71/Ter119 cells | 18.4% and 16.7% and 16.6% and 12.9% and 16.8% and 18.2% |

| Structure (SMILES) | test | test system | conditions | scale | measurement | result |
| --- | --- | --- | --- | --- | --- | --- |
| Cc1cn(CC(=O)N(CCNC(=O)CN(CCNC(=O)CN(CCNC(=O)CN(CCNC(=O)CN(CCNC(=O)CN(CCNC(=O)CN(CCNC(=O)CN(CCN)C(=O)Cn2cnc3c(=O)[nH]c(N)nc32)C(=O)Cn2cnc3c(N)ncnc32)C(=O)Cn2cc(C)c(=O)[nH]c2=O)C(=O)Cn2cnc3c(=O)[nH]c(N)nc32)C(=O)Cn2cc(C)c(=O)[nH]c2=O)C(=O)Cn2cnc3c(=O)[nH]c(N)nc32)C(=O)Cn2cnc3c(N)ncnc32)CC(=O)NCCN(CC(=O)NCCOCCOCC(N)=O)C(=O)Cn2cnc3c(N)ncnc32)c(=O)[nH]c1=O | UV melting | DNA duplex with T·T mismatch | pH 7.2, 1 µM each strand | – | Tm | 28.2 °C |
| CN1CCC[C@]1(C)/C=C/S(=O)(=O)NC(=O)Nc1c2c(cc3c1CCC3)CCC2 | – | human, whole blood ex vivo | 250 mg single dose, 6 h, single ascending dose, added: LPS and ATP | – | IL-1β inhibition | 99% |
| COc1cccc(OCC(O)CN2CCN(c3ccccc3OC)CC2)c1 (stereo not shown) | – | zebrafish larvae, 7 dpf | 10 µM, minute 6 | – | larval motion | 4.3 ± 1.8 pixels/frame |
| CCC(CC)n1c(Cc2ccco2)nc2cc(C(=O)N[C@@H](CC(=O)O)c3ccccc3)ccc21 | refers to: hypertrophic markers ANP, BNP | mouse HFpEF model (high-fat diet plus L-NAME, 7 weeks) | intraperitoneal, 20 mg/kg/day, 2 weeks | – | mRNA level | decreased |
| Cc1cccc(NC(=O)CCN2CCN(C/C=C/c3ccccc3)CC2)c1 | – | zebrafish larvae, 7 dpf | 10 µM, minute 4 | – | larval motion | 5.8 ± 1 pixels/frame |
| CN(C)C(=O)c1ccnc(N2Cc3cn(Cc4ccc(F)cc4F)nc3C2)n1 | – | mouse, hippocampal slice, Schaffer collaterals | dose not given, interstimulus interval 50 | relative to: second over first response | paired-pulse ratio | 1.79 and 1.5 and 1.52 and 2.36 and 1.68 and 2.56 and 1.63 and 1.48 |
| O=C(CCN1CCN(C/C=C/c2ccccc2)CC1)Nc1ccccc1 | locomotor activity in dark | zebrafish larvae, 7 dpf | 10 µM, minute 3, dark phase | – | larval motion | 3 ± 0.5 pixels/frame |
| CC(C)C[C@H](NC(=O)CNC(=O)[C@H](CCC(N)=O)NC(=O)[C@H](CC(C)C)NC(=O)[C@H](CC(C)C)NC(=O)[C@H](CCCNC(=N)N)NC(=O)[C@H](CCC(N)=O)NC(=O)[C@H](CC(C)C)NC(=O)[C@H](CCCNC(=N)N)NC(=O)[C@H](C)NC(=O)CNC(=O)[C@H](CCC(=O)O)NC(=O)[C@H](CCCNC(=N)N)NC(=O)[C@H](CC(C)C)NC(=O)[C@H](CCCNC(=N)N)NC(=O)[C@H](CO)NC(=O)[C@H](CC(C)C)NC(=O)[C@H](CCC(=O)O)NC(=O)[C@H](CO)NC(=O)[C@@H](NC(=O)[C@H](Cc1ccccc1)NC(=O)[C@@H](NC(=O)CNC(=O)[C@H](CC(=O)O)NC(=O)C(C)(C)NC(=O)[C@@H](N)Cc1c[nH]cn1)[C@@H](C)O)[C@@H](C)O)C(=O)N[C@@H](CC(C)C)C(=O)N[C@@H](CCC(N)=O)C(=O)NCC(=O)N[C@@H](CC(C)C)C(=O)N[C@H](C(=O)NCC(=O)N[C@@H](CCCCNC(=O)COCCOCCNC(=O)COCCOCCNC(=O)CC[C@H](NC(=O)CCCCCCCCCCCCCCCCC(=O)O)C(=O)O)C(N)=O)C(C)C | – | DIO C57BL/6J mice | sc, 300 nmol/kg twice daily, 8 days | – | food intake | no effect |
| COc1cnc2cccc(N3CCc4c(cc(Cn5ccnc5)cc4-c4cn(C)nc4C(F)(F)F)C3=O)c2c1 | – | BALB/c nude mice, MV4-11 xenograft | intraperitoneal, 75 mg/kg, day 14 | – | tumour volume | 160 mm3 and 178 mm3 and 184 mm3 and 180 mm3 and 177 mm3 |
| CN(C)CCOCCOc1ccc(Cl)c(Cl)c1 | – | zebrafish larvae, 7 dpf | 10 µM, minute 4 | – | larval motion | 3.8 ± 1.5 pixels/frame |
| COc1ccccc1-c1ccncc1C(=O)Nc1nnc(OCc2ccc(Cl)cc2)s1 | – | Brca1 Δ11/Δ11 Polq-/- MEFs, Mus musculus | 5 µM, average of runs | relative to: 0 µM | colony survival | 86.3% |
| COc1ccc(C(=O)CCc2cc(C(CCc3ccc(O)cc3OC)c3ccc(O)cc3)c(O)cc2OC)cc1 (racemic) | – | human blood | 3 µM, added: A23187 | – | 14-HDHA level | 957 ± 256 pg/mL |
| CN1CCCNC(=O)c2cccc(c2)C(=O)NCCCN(C)CCCNc2cccc3c2C(=O)c2cccc(c2C3=O)NCCC1 | – | SAS xenograft, KSN/Slc nude mice | dose not given, 192 h (day 8), group mean | – | tumour volume | 249 mm3 |
| Cc1cc(NC(=O)CCN2CCCCC2)ccc1Br | – | zebrafish larvae, 7 dpf | 10 µM, minute 2 | – | larval motion | 17.3 ± 2.1 pixels/frame |
| Cc1cn(CC(=O)N(CC(=O)N[C@H]2CCC[C@@H]2N(CC(=O)N[C@H]2COC[C@@H]2N(CC(=O)N[C@H]2COC[C@@H]2N(CC(=O)N[C@H]2COC[C@@H]2N(CC(=O)NCCOCCOCC(N)=O)C(=O)Cn2cnc3c(N)ncnc32)C(=O)Cn2cc(C)c(=O)[nH]c2=O)C(=O)Cn2cnc3c(N)ncnc32)C(=O)Cn2cnc3c(=O)[nH]c(N)nc32)[C@H]2CCC[C@@H]2NC(=O)CN(C(=O)Cn2cnc3c(=O)[nH]c(N)nc32)[C@H]2CCC[C@@H]2NC(=O)CN(C(=O)Cn2cc(C)c(=O)[nH]c2=O)[C@H]2COC[C@@H]2NC(=O)CN(C(=O)Cn2cnc3c(N)ncnc32)[C@H]2COC[C@@H]2NC(=O)CN(C(=O)Cn2cnc3c(=O)[nH]c(N)nc32)[C@H]2COC[C@@H]2N)c(=O)[nH]c1=O | UV melting | DNA duplex with T·T mismatch | pH 7.2, 1 µM each strand | – | Tm | 65 °C |

Excerpt of the above:
| Structure (SMILES) | test | test system | conditions | scale | measurement | result |
| --- | --- | --- | --- | --- | --- | --- |
| Cc1cnc2nc1Nc1cccc(c1)COC/C=C/COCc1cc(ccc1OCCN1CCOCC1)N2 | – | BALB/c mice rhEPO-induced polycythemia, bone marrow | 75 mg/kg | – | CD71/Ter119 cells | 18.4% and 16.7% and 16.6% and 12.9% and 16.8% and 18.2% |
| NC[C@@H](C(=O)Nc1ccc(-c2cn[nH]c2)cc1)c1ccccc1 | – | normotensive Macaca cyclopis, right eye | 0.1 %, pre-dose | – | intraocular pressure | 20.3 mmHg |
| Cc1cn(CC(=O)N(CCNC(=O)CN(CCNC(=O)CN(CCNC(=O)CN(CCNC(=O)CN(CCNC(=O)CN(CCNC(=O)CN(CCNC(=O)CN(CCN)C(=O)Cn2cnc3c(=O)[nH]c(N)nc32)C(=O)Cn2cnc3c(N)ncnc32)C(=O)Cn2cc(C)c(=O)[nH]c2=O)C(=O)Cn2cnc3c(=O)[nH]c(N)nc32)C(=O)Cn2cc(C)c(=O)[nH]c2=O)C(=O)Cn2cnc3c(=O)[nH]c(N)nc32)C(=O)Cn2cnc3c(N)ncnc32)CC(=O)NCCN(CC(=O)NCCOCCOCC(N)=O)C(=O)Cn2cnc3c(N)ncnc32)c(=O)[nH]c1=O | UV melting | DNA duplex with T·T mismatch | pH 7.2, 1 µM each strand | – | Tm | 28.2 °C |
| COc1cccc(OCC(O)CN2CCN(c3ccccc3OC)CC2)c1 (stereo not shown) | – | zebrafish larvae, 7 dpf | 10 µM, minute 6 | – | larval motion | 4.3 ± 1.8 pixels/frame |
| CC(=O)[O-].O.O.O.O.[Co+2].[O-]c1ccc(Br)cc1C=NCCN1CCOCC1 | hydroxyl radical scavenging | – | 160 µM | – | inhibition | 38.4% |
